{"data": "Measurements from different studies", "note": "Values joined by “and” are separate records of one study, mostly repeats; a detail may differ. ± marks the error that the study gave."}
{"Structure (SMILES)": "NCCNc1nnnc2c1sc1nc(NCCO)c3c(c12)CCCC3", "cell line": "cryopreserved rat hepatocytes", "assay": "UHPLC-MS peak area", "conditions": "1 µM, 20 min", "endpoint": "percentage of drug-related material", "value": "2.2%"}
{"Structure (SMILES)": "NC(=O)c1cccc(NC(=O)c2cc(-c3ccccc3)nn2-c2ccccc2)c1", "cell line": "HeLa", "assay": "cell growth or viability", "endpoint": "CC50", "value": "> 50 µM"}
{"Structure (SMILES)": "COc1cc(/C=C/C=C2\\SC(=S)NC2=O)ccc1O", "cell line": "HEK-293T", "assay": "CellTiter-Glo", "conditions": "20 µM, 24 h, unit not given", "scale": "baseline: untreated", "endpoint": "viability", "value": "0.999 and 0.976"}
{"Structure (SMILES)": "CC(C)C[C@@H]1NC(=O)[C@H](CO)NC(=O)[C@H](CC(=O)O)NC(=O)[C@@H]2CCCN2C(=O)[C@H]2CCCN2C(=O)[C@H](C(C)C)NC(=O)[C@H](CC(=O)O)NC(=O)[C@H](CC(N)=O)NC(=O)[C@H](CCCNC(=N)N)NC(=O)[C@H]([C@@H](C)O)NC(=O)[C@H](C(C)C)NC(=O)CCNC(=O)CCNC(=O)[C@H](Cc2ccccc2)NC(=O)[C@H](C(C)C)NC(=O)[C@H](CC(C)C)NC1=O", "cell line": "HEK-293T", "assay": "subcellular fractionation LC-MS", "system": "nuclear fraction", "conditions": "20 µM, 24 h", "endpoint": "concentration", "value": "not detected"}
{"Structure (SMILES)": "N=C(N)Nc1ccc(CNC(=O)c2cc(-c3ccccc3)n(-c3ccccc3)n2)cc1", "cell line": "HeLa", "assay": "cell growth or viability", "endpoint": "CC50", "value": "> 50 µM"}
{"Structure (SMILES)": "Cc1ccc(S(=O)(=O)N2N=Cc3ccsc3B2O)cc1", "cell line": "HEK-293T", "assay": "cell growth or viability, MTT", "conditions": "48 h", "endpoint": "IC50", "value": "> 100 µM"}
{"Structure (SMILES)": "CC(C)CC(OC1OC(CO)C(O)C(OC(=O)C=Cc2ccccc2)C1O)(C(=O)OCc1ccc(OC2OC(CO)C(O)C(O)C2O)cc1)C(O)C(=O)OCc1ccc(OC2OC(CO)C(O)C(O)C2O)cc1 (stereo not drawn)", "cell line": "HaCaT", "assay": "cytotoxicity, MTT", "conditions": "48 h, 10% FBS", "endpoint": "IC50", "value": "> 200 µM"}
{"Structure (SMILES)": "CC(=O)N[C@H](C(=O)N[C@H](C(=O)N[C@@H](CCCNC(=N)N)C(=O)N[C@@H](CC(N)=O)C(=O)N[C@@H](CC(=O)O)C(=O)N[C@H](C(=O)N1CCC[C@@H]1C(=O)N1CCC[C@H]1C(=O)N[C@@H](CC(=O)O)C(=O)N[C@@H](CO)C(=O)N[C@@H](CC(C)C)C(=O)N[C@@H](CC(C)C)C(=O)N[C@H](C(=O)N[C@@H](Cc1ccccc1)C(N)=O)C(C)C)C(C)C)[C@@H](C)O)C(C)C", "cell line": "HEK-293T", "assay": "subcellular fractionation LC-MS", "system": "cytoplasmic fraction", "conditions": "20 µM, 24 h", "endpoint": "peptide amount per protein", "value": "not detected"}
{"Structure (SMILES)": "N=C(N)NCCC[C@@H]1NC(=O)[C@H](CCCNC(=N)N)NC(=O)[C@H](CCCNC(=N)N)NC(=O)[C@@H](CCCNC(=N)N)NC(=O)[C@H](Cc2ccc3ccccc3c2)NC(=O)[C@H](Cc2ccc3ccccc3c2)NC(=O)[C@H](Cc2ccc3ccccc3c2)NC1=O", "cell line": "MRC5", "assay": "cell growth or viability, MTS", "conditions": "150 µg/mL, 24 h", "endpoint": "viability", "value": "61 to 70%"}
{"Structure (SMILES)": "O=CCNCCOn1c(=O)n(OCCNCCO)c(=O)n(OCCNCCOn2c(=O)n(OCCNCCO)c(=O)n(OCCNCCO)c2=O)c1=O", "cell line": "HUVEC", "assay": "cell growth or viability, MTT", "conditions": "72 h", "endpoint": "IC50", "value": "3.1 µg/mL"}
{"Structure (SMILES)": "O=C(OCc1ccc(O[C@@H]2O[C@H](CO)[C@@H](O)[C@H](O)[C@H]2O)cc1)c1ccc(O)cc1", "cell line": "HaCaT", "assay": "cytotoxicity, MTT", "conditions": "48 h, 10% FBS", "endpoint": "IC50", "value": "> 200 µM"}
{"Structure (SMILES)": "NC(=O)c1cccc(NC(=O)c2cc(O)n(-c3ccccc3)n2)c1", "cell line": "HeLa", "assay": "cell growth or viability", "endpoint": "CC50", "value": "> 50 µM"}
{"Structure (SMILES)": "NC[C@H]1O[C@H](O[C@H]2[C@H](O)[C@@H](O[C@H]3O[C@H](Cn4cc(CNC(=S)Nc5ccc6c(c5)C(=O)OC65c6ccc(O)cc6Oc6cc(O)ccc65)nn4)[C@@H](O)[C@H](N)[C@H]3O)[C@H](N)C[C@@H]2N)[C@H](O)[C@@H](O)[C@@H]1O", "cell line": "MCF7", "conditions": "5 µM, 24 h", "endpoint": "cytotoxicity", "value": "5 ± 0.8%"}
{"Structure (SMILES)": "Cc1ccccc1-n1nc(C(=O)Nc2cccc(C(N)=O)c2)cc1-c1cccnc1", "cell line": "HeLa", "assay": "cell growth or viability", "endpoint": "CC50", "value": "> 50 µM"}
{"Structure (SMILES)": "O=C1NC2(CC2)COc2ncc(F)cc2[C@H]2COCCN2c2ccn3ncc1c3n2", "cell line": "CHL", "conditions": "150 µg/mL, 4 h, with rat liver S9", "endpoint": "numerical aberrations", "value": "0%"}
{"Structure (SMILES)": "Cc1cc(C(=O)Nc2cccc(C(N)=O)c2)n(Cc2ccccc2)n1", "cell line": "HeLa", "assay": "cell growth or viability", "endpoint": "CC50", "value": "> 50 µM"}
{"Structure (SMILES)": "Cc1cc(=O)c2c(O)c3c(O[C@@H]4O[C@H](CO)[C@@H](O)[C@H](O)[C@H]4O)cc(O)cc3cc2o1", "cell line": "HepaRG co-cultured with HK-2", "assay": "MTT", "conditions": "16.67 µM, 48 h", "scale": "baseline: untreated control", "endpoint": "cell viability", "value": "86.4 ± 7.39%"}
{"Structure (SMILES)": "O=C(c1cc(-c2ccccc2)n(-c2ccccc2)n1)N1CCc2nc[nH]c2C1", "cell line": "HeLa", "assay": "cell growth or viability", "endpoint": "CC50", "value": "> 50 µM"}
{"Structure (SMILES)": "CC1(C)C(NC(=O)C(=NOC2(C(=O)O)CC2)c2csc(N)n2)C(=O)N1OS(=O)(=O)O (stereo not drawn)", "cell line": "HaCaT", "assay": "cell growth or viability", "endpoint": "CC50", "value": "> 100 µM"}
{"Structure (SMILES)": "NCc1ccc(CNC(=O)c2cc(-c3ccccc3)n(-c3ccccc3)n2)cc1", "cell line": "HeLa", "assay": "cell growth or viability", "endpoint": "CC50", "value": "> 50 µM"}
{"Structure (SMILES)": "CN1CCCNC(=O)c2cccc(c2)C(=O)NCCCN(C)CCCNc2cccc3c2C(=O)c2cccc(c2C3=O)NCCC1", "cell line": "HeLa", "assay": "cell growth or viability, CCK-8", "conditions": "0.5 µM, 48 h", "endpoint": "viability", "value": "40.8%"}
{"note": "A few entries again:"}
{"Structure (SMILES)": "NC(=O)c1cccc(NC(=O)c2cc(O)n(-c3ccccc3)n2)c1", "cell line": "HeLa", "assay": "cell growth or viability", "endpoint": "CC50", "value": "> 50 µM"}
{"Structure (SMILES)": "NCCNc1nnnc2c1sc1nc(NCCO)c3c(c12)CCCC3", "cell line": "cryopreserved rat hepatocytes", "assay": "UHPLC-MS peak area", "conditions": "1 µM, 20 min", "endpoint": "percentage of drug-related material", "value": "2.2%"}
{"Structure (SMILES)": "N=C(N)NCCC[C@@H]1NC(=O)[C@H](CCCNC(=N)N)NC(=O)[C@H](CCCNC(=N)N)NC(=O)[C@@H](CCCNC(=N)N)NC(=O)[C@H](Cc2ccc3ccccc3c2)NC(=O)[C@H](Cc2ccc3ccccc3c2)NC(=O)[C@H](Cc2ccc3ccccc3c2)NC1=O", "cell line": "MRC5", "assay": "cell growth or viability, MTS", "conditions": "150 µg/mL, 24 h", "endpoint": "viability", "value": "61 to 70%"}
